Measurements collected from several papers.
Lines come from different studies, so protocols differ. ± marks the error that the study gave.
Organism: Staphylococcus aureus

Structure (SMILES) = CN[C@H](CC(C)C)C(=O)N[C@H]1C(=O)N[C@@H](CC(N)=O)C(=O)N[C@H]2C(=O)N[C@H]3C(=O)N[C@H](C(=O)N[C@H](C(=O)O)c4cc(O)cc(O)c4-c4cc3ccc4O)[C@H](O)c3ccc(c(Cl)c3)Oc3cc2cc(c3O[C@@H]2O[C@H](CO)[C@@H](O)[C@H](O)[C@H]2O[C@H]2C[C@](C)(NCc3ccc(C(=O)OCCCCCCN(Cc4ccccn4)Cc4ccccn4)cc3)[C@H](O)[C@H](C)O2)Oc2ccc(cc2Cl)[C@H]1O; test system = MRSA exponential phase; conditions = MIC, 12 h; measurement = viable count reduction; result = 2.4 log CFU/mL
Structure (SMILES) = Oc1ccccc1C1Nc2ccccc2C2=[O+][Cu-2]3([Cl])[O]c4ccccc4C=[N+]3N21 (centres unmarked); assay = respiratory activity, MTT; test system = ATCC 29213; conditions = 0.5 × MIC; measurement = inhibition; result = 92.9%
Structure (SMILES) = CNC(CC(C)C)C(=O)NC1C(=O)NC(CC(N)=O)C(=O)NC2C(=O)NC3C(=O)NC(C(=O)NC(C(=O)O)c4cc(O)cc(O)c4-c4cc3ccc4O)C(O)c3ccc(c(Cl)c3)Oc3cc2cc(c3OC2OC(CO)C(O)C(O)C2OC2CC(C)(NC(=O)CCCC[N+](C)(C)C)C(O)C(C)O2)Oc2ccc(cc2Cl)C1O (centres unmarked); assay = agar dilution; test system = MRSA1; scale = baseline: vancomycin, higher = more active; measurement = MIC fold improvement; result = 8 fold
Structure (SMILES) = COc1c(CC=C(C)C)c(O)cc2c1-c1oc3c(CC=C(C)C)c(O)ccc3c1CO2; test system = ATCC 25923; conditions = concentration not given; measurement = antibacterial activity; result = inactive
Structure (SMILES) = O=C(O)c1ccc(-n2cc(/C=N/Nc3cccc(Cl)c3F)c(-c3ccc4ccccc4c3)n2)cc1; assay = microbial killing, broth dilution; test system = MRSA; measurement = MBC; result = 12.5 µg/mL
Structure (SMILES) = CC(C)C[C@H](NC(=O)[C@H](CC(N)=O)NC(=O)[C@H](CCCNC(=N)N)NC(=O)[C@@H](CC(C)C)NC(=O)[C@H](Cc1ccc(-c2ccccc2)cc1)NC(=O)[C@H](CC(=O)O)NC(=O)[C@H](CCCCN)NC(=O)[C@@H](CC(C)C)NC(=O)[C@H](CCCN)NC(=O)[C@H](CCC(N)=O)NC(=O)[C@@H](NC(=O)[C@@H](CC(C)C)NC(=O)[C@H](CCCNC(=N)N)NC(=O)[C@H](CCCCN)NC(=O)[C@H](Cc1ccc(-c2ccccc2)cc1)NC(=O)CN)C(C)C)C(=O)N[C@H](C(N)=O)C(C)C; assay = XTT; test system = USA300; conditions = 24 h, 37 °C; measurement = biofilm inhibitory concentration; result = 12.5 µM
Structure (SMILES) = S=c1n(CN2CCN(Cc3ccccc3)CC2)nc(C23CC4CC(CC(C4)C2)C3)n1-c1ccccc1; test system = IFO 3060; conditions = 200 µg/disc, 24 h, 37 °C; measurement = inhibition zone diameter; result = 19 mm
Structure (SMILES) = C=CS(=O)(=O)NCCCCCCCCCCOCc1cn(CCCCCCCCCCNS(=O)(=O)C=C)n[n+]1C; assay = microbial growth, absorbance; conditions = 24 h; measurement = IC50; result = 8.3 µM
Structure (SMILES) = CCCCCCCCCCCCCC(=O)N[C@@H](CCCCN)C(=O)N[C@@H](CCCCN)C(N)=O; assay = biofilm formation, XTT; test system = USA300; conditions = 3.1 to 12.5 µM; measurement = inhibition; result = inhibited
Structure (SMILES) = CN1/C(=C/C=C/c2cc(-c3ccccc3)cc(-c3ccccc3)[o+]2)C(C)(C)c2ccccc21; assay = protein synthesis; test system = NCTC 8325; conditions = with: reserpine 20 µg/mL; measurement = IC50; result = 0.39 µg/mL
Structure (SMILES) = CCCCCCCCCC1CC2CCC3CC(CCCCCCCCC)NC(=N1)N23 (centres unmarked); assay = bacterial growth; test system = ATCC 29213; measurement = IC50; result = 3.02 µM
Structure (SMILES) = Cc1cc(O)c2c(c1)C(=O)c1cc3oc(=O)cc(C)c3c(O)c1C2=O; test system = MTCC 96; conditions = 100 µg/disc; measurement = zone of inhibition; result = < 8 mm
Structure (SMILES) = N=C(N)NCCC[C@@H]1NC(=O)[C@H](CCCNC(=N)N)NC(=O)[C@H](CCCNC(=N)N)NC(=O)[C@H](Cc2ccc3ccccc3c2)NC(=O)[C@H](Cc2c[nH]c3ccccc23)NC(=O)[C@H](Cc2ccc3ccccc3c2)NC(=O)[C@H](CCCNC(=N)N)NC1=O; assay = bacterial killing; test system = MRSA ATCC BAA-1556; conditions = MIC; measurement = time to kill; result = 3 to 4 h
Structure (SMILES) = CNC(CC(C)C)C(=O)NC1C(=O)NC(CC(N)=O)C(=O)NC2C(=O)NC3C(=O)NC(C(=O)NC(C(=O)O)c4cc(O)cc(O)c4-c4cc3ccc4O)C(O)c3ccc(c(Cl)c3)Oc3cc2cc(c3OC2OC(CO)C(O)C(O)C2OC2CC(C)(NC(=O)CCCC[N+](C)(C)Cc3ccccc3)C(O)C(C)O2)Oc2ccc(cc2Cl)C1O (centres unmarked); assay = agar dilution; test system = MRSA5; scale = baseline: vancomycin, higher = more active; measurement = MIC fold improvement; result = 8 fold
Structure (SMILES) = N=C(N)NCCC[C@H](NC(=O)[C@H](Cc1c[nH]c2ccccc12)NC(=O)[C@H](CCC(N)=O)NC(=O)[C@H](Cc1c[nH]c2ccccc12)NC(=O)[C@H](CCCNC(=N)N)NC(=O)[C@@H](N)CCCNC(=N)N)C(=O)NCCCC[C@H](NC(=O)[C@H](CCCNC(=N)N)NC(=O)[C@H](Cc1c[nH]c2ccccc12)NC(=O)[C@H](CCC(N)=O)NC(=O)[C@H](Cc1c[nH]c2ccccc12)NC(=O)[C@H](CCCNC(=N)N)NC(=O)[C@@H](N)CCCNC(=N)N)C(=O)NCCCCCC(=O)N[C@@H](CSSC[C@H](NC(=O)CCCCCNC(=O)[C@H](CCCCNC(=O)[C@H](CCCNC(=N)N)NC(=O)[C@H](Cc1c[nH]c2ccccc12)NC(=O)[C@H](CCC(N)=O)NC(=O)[C@H](Cc1c[nH]c2ccccc12)NC(=O)[C@H](CCCNC(=N)N)NC(=O)[C@@H](N)CCCNC(=N)N)NC(=O)[C@H](CCCNC(=N)N)NC(=O)[C@H](Cc1c[nH]c2ccccc12)NC(=O)[C@H](CCC(N)=O)NC(=O)[C@H](Cc1c[nH]c2ccccc12)NC(=O)[C@H](CCCNC(=N)N)NC(=O)[C@@H](N)CCCNC(=N)N)C(N)=O)C(N)=O; assay = time-kill; test system = ATCC 25923; conditions = 44 µM; measurement = time to bactericidal effect; result = 48 h
Structure (SMILES) = Oc1c(Br)cc(Br)c2nc3cc(F)ccc3nc12; assay = Calgary biofilm device; test system = MRSA ATCC BAA-44, biofilm-released planktonic cells; conditions = 24 h, 37 °C; measurement = MBC; result = 50 µM
Structure (SMILES) = CCCCCCCCCCCCCCCCCC(=O)N[C@@H](CCCCN)C(=O)N[C@@H](CCCCN)C(=O)N(CCCCN)CC(=O)N[C@@H](CCCCN)C(=O)N[C@@H](CCCCN)C(N)=O; test system = MRSA JE2, Galleria mellonella larvae; conditions = 50 mg/kg, 4 d; measurement = survival; result = 90%
Structure (SMILES) = O=C(CCc1ccc(O)c(O)c1)NCCCCCCCCCC[P+](c1ccccc1)(c1ccccc1)c1ccccc1; test system = XU212; conditions = 2 x MIC, 1 h; measurement = K+ release; result = 2.12 ± 0.55 µg/mL
Structure (SMILES) = CC(=O)[O-].O.O.O.O.[Ni+2].[O-]c1ccc(Br)cc1C=NCCN1CCOCC1; conditions = 20 µL of 100 µM per disc; measurement = inhibition zone diameter; result = 22 mm
Structure (SMILES) = NS(=O)(=O)c1ccc(-n2c(S)nc3ccccc3c2=O)cc1; assay = microbial growth, well diffusion; test system = ATCC29213; conditions = 500 µg/mL, 24 h; measurement = inhibition zone; result = 13 mm
Structure (SMILES) = CN(C)c1cc(CNCc2ccccc2)c(O)c2c1C[C@H]1C[C@H]3[C@H](N(C)C)C(O)=C(C(N)=O)C(=O)[C@@]3(O)C(O)=C1C2=O; test system = MRSA 5 tetM, mouse thigh infection model; conditions = sc, 20 mg/kg, 24 h; scale = baseline: untreated control; measurement = log10 CFU reduction; result = < 2 log10
Structure (SMILES) = CC(C)C[C@H](NC(=O)[C@H](CC(N)=O)NC(=O)[C@H](CCCNC(=N)N)NC(=O)[C@@H](CC(C)C)NC(=O)[C@H](Cc1ccc(-c2ccccc2)cc1)NC(=O)[C@H](CC(=O)O)NC(=O)[C@H](CCCCN)NC(=O)[C@@H](CC(C)C)NC(=O)[C@H](CCCNC(=N)N)NC(=O)[C@H](CCC(N)=O)NC(=O)[C@@H](NC(=O)[C@@H](CC(C)C)NC(=O)[C@H](CCCNC(=N)N)NC(=O)[C@H](CCCCN)NC(=O)[C@H](Cc1ccc(-c2ccccc2)cc1)NC(=O)CN)C(C)C)C(=O)N[C@H](C(N)=O)C(C)C; assay = XTT; test system = USA300 LAC, 6 h preformed biofilm; conditions = 1 × MIC, 24 h; measurement = viable biofilm cells; result = 25%
Structure (SMILES) = Cc1cccc([N+](=O)[O-])c1NC(=O)CSc1nc2ccccc2c(=O)n1-c1ccc(S(N)(=O)=O)cc1; assay = microbial growth, well diffusion; test system = MRSA; conditions = 500 µg/mL, 24 h; measurement = inhibition zone; result = 25 mm

For quick reference, copied from above:
Structure (SMILES) = CCCCCCCCCC1CC2CCC3CC(CCCCCCCCC)NC(=N1)N23 (centres unmarked); assay = bacterial growth; test system = ATCC 29213; measurement = IC50; result = 3.02 µM
